Experimental data of several laboratories.
Parts stem from different laboratories: compare values within a part only. Positions count from the first letter of the parent shown.

Series 1
Target: PABPC1L2, full length, GST fusion (mouse, UniProt A0ABA7IW68)
Method: RNAcompete
Form: RNA
Sample: in vitro
Concentration: 20 nM
Setting: 7-mer, probes averaged, single round
Baseline: mean of 7-mers
Direction: higher = stronger binding
Residues (chain): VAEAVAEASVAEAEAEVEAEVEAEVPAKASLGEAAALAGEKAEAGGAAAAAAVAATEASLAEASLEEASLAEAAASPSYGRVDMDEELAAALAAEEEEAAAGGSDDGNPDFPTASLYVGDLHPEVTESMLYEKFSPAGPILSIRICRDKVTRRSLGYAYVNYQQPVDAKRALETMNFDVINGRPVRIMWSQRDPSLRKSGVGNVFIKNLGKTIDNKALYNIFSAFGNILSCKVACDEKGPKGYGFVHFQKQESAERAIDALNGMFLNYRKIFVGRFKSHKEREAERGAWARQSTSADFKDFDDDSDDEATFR
| Oligonucleotide | 7-mer Z-score |
| --- | --- |
| GCCUACU | -0.318 |
| GGAGCUU | 0.142 |
| CAUGUCG | -0.142 |
| UCUCGUG | -0.38 |
| AUUCCCC | -0.499 |
| CAGGUUC | -0.209 |
| GGACGUA | 0.122 |
| CCGAUGG | -0.117 |
| UCGUAUU | -0.333 |
| AUUUCCG | -0.324 |
| CCGUCUG | -0.271 |
| GGAACUC | -0.121 |
| CAGGUAC | -0.0428 |
| AGAGGUA | 0.0551 |
| CACUUAG | -0.151 |
| GUUGAGG | 0.000733 |
| AGCUCCU | -0.296 |
| UGGACUA | 0.108 |
| GUGAGAU | -0.2 |
| AAACACG | 2.68 |
| ACCCACA | -0.302 |
| UCCCGAA | -0.0899 |
| CAGGGAC | 0.418 |
| AAGCAAG | 0.287 |
| GCAGCCA | -0.0591 |

Series 2
Target: Interferon regulatory factor 7, full length, phosphomimetic (IRF7, Homo sapiens, UniProt Q92985, residues 1-503, S471D/S472D/S475D/S476D/S477D/S483D/S484D/S487D)
Method: protein-binding microarray
Form: double-stranded DNA, one strand shown
Sample: in vitro
Concentration: 2200 nM top
Setting: 60-bp whole probe
With: salmon DNA 0.4 mg/ml
Baseline: random background probes
Direction: higher = stronger binding
All sequences stand within: GCCTAGCAC … GTCTTGATTCGCTTGACGCTGCTG
Residues (chain): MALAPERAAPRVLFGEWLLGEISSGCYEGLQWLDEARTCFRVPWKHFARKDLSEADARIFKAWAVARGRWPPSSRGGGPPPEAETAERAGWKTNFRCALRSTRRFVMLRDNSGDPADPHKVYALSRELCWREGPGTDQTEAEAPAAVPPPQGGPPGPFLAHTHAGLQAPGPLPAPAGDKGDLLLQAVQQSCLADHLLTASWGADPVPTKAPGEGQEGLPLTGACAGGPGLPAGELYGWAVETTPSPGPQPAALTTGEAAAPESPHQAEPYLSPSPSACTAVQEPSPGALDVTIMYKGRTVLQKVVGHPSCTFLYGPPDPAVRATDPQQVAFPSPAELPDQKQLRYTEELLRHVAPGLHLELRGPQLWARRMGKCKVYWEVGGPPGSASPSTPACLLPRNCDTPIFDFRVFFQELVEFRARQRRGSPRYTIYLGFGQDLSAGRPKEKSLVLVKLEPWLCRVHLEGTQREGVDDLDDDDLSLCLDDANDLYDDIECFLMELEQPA
| Oligonucleotide | fitted relative affinity [z-score] |
| --- | --- |
| TCCATGCTGGCTTTTATGCGGTGCTAG | -0.188 |
| GACGATATCGGGTACCGAGACGTGCTA | -0.294 |
| GACGGTATCGATTATCGGGACGTGCTA | 0.361 |
| TTAGGTTTCGGACTGGGATAGTGCTAG | 3.15 |
| TTAGGTTTCCTACTGCTATAGTGCTAG | 0.933 |
| GACGGTATCCTATTGCTGACGTGCTAG | 0.757 |
| GACGATCTCAGTTTCGAGAGGTGCTAG | 2.05 |
| GACGGTATCGACACAGGGGACGTGCTA | -0.266 |
| TTAGATCTCAGTTTCGAGTAGTGCTAG | 3.7 |
| TTAGGTCTCTGACTGGGTTAGTGCTAG | -0.252 |
| GAAGATATCAGTTTCGAGACGTGCTAG | 3.6 |
| TCATTTCTACTTCTCTTACTGTGCTAG | 3.29 |
| AGAGCTAAGTGAGTGTCATCGTGCTAG | -0.388 |
| GACGGTAGCGGACTGGGGACGTGCTAG | -1.12 |
| TCAGCCCTCACCATCATACTGTGCTAG | 0.976 |
| TTAGATTTCGGGACTGGATGAGTGCTA | 0.854 |
| GACGATTTCGGGACTGGAGATGTGCTA | 1.37 |
| GACGGTCGCGGTTTCGGGACGTGCTAG | 2.76 |
| TGTGCTTTCCTGATGACCCTGTGCTAG | 2.09 |
| TTAGATCTGAGACTGGATTAGTGCTAG | -0.417 |
| GACGGACTGGGTCTCGGGTCGTGCTAG | -0.537 |
| GACGGGCTGGACACTGGGGACGTGCTA | -1.15 |
| GACGGACTGGGTTTCGGGACGTGCTAG | 1.02 |

Series 3
Target: CCNF, cyclin fold, Cln2 fusion (human)
Method: yeast growth competition, sequencing
Sample: yeast
Setting: strong parent motif
Baseline: not given
Direction: higher = stronger binding
Starting sequence: RBL2 docking peptide (human); STTRRRLFVENDS
| Change | normalised enrichment score |
| --- | --- |
| WTTRRRLFVENDS [S1W] | 8.18 |
| STTRVRLFVENDS [R5V] | 1.88 |
| STTRRRLFVENDC [S13C] | 7.27 |
| STTRRRLFVENVS [D12V] | 8.36 |
| SCTRRRLFVENDS [T2C] | 8.18 |
| STTRRALFVENDS [R6A] | 7.81 |
| STTRRRLFVENDI [S13I] | 9.03 |
| STTRRRLFVENDN [S13N] | 7.43 |
| STTRRQLFVENDS [R6Q] | 7.75 |
| STTRRRLFVENLS [D12L] | 8.23 |
| STGRRRLFVENDS [T3G] | 6.35 |
| STTRRRLHVENDS [F8H] | 2.15 |
| STTRRRGFVENDS [L7G] | -0.225 |
| STTRRRLFVINDS [E10I] | 7.16 |
| STQRRRLFVENDS [T3Q] | 3.21 |
| STNRRRLFVENDS [T3N] | 1.73 |
| STTLRRLFVENDS [R4L] | 1.69 |
| STTRRRPFVENDS [L7P] | 0.687 |
| STTRRRLFVNNDS [E10N] | 7.53 |
| STTRRRLFVERDS [N11R] | 7.98 |
| STTRRRLFVENWS [D12W] | 8.08 |
| STTRRRLFVENIS [D12I] | 8.54 |
| STTRRRLFVEKDS [N11K] | 7.94 |
| STTRRRLFVEADS [N11A] | 8.31 |
| STTRRRLAVENDS [F8A] | 1.38 |

Series 4
Target: RNA binding protein fox-1 homolog 2, RRM domain, GST-SBP tag (RBFOX2, Homo sapiens, UniProt O43251-10, residues 100-194)
Method: RNA Bind-n-Seq
Form: RNA
Sample: in vitro
Concentration: 365 nM
Setting: natural RNA segment, single round, ends assumed
Baseline: no-protein control
Direction: higher = stronger binding
Residues (chain): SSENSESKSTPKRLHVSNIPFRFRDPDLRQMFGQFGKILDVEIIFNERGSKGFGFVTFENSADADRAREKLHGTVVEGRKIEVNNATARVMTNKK
| Oligonucleotide | RBNS enrichment (R) |
| --- | --- |
| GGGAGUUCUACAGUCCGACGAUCGGUGAGUUCCUUGGACGACCCCAGACAGGCUUCUGGAUCUGGCUCCAGGGUCAUCACAUGUCAAAGCAAUAUUGGGGAUUGCUAGGCUUCUUUCAACUUACUUUUCACAGUGGAAUUCUCGGGUGCCAA | 0.67 |
| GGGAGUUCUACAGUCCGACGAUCAUGAUCUUAAAGAUAUGUUUAAGUUAAUGGAUGUAAUGCAGGGUUCCUACACUGUAUUUUGGCGCAUGUUGGUGGCCCUCUGUGCCCUAGAUAUAUGCACACAGGGUGCAUGGAAUUCUCGGGUGCCAA | 9.05 |
| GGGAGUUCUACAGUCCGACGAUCAAAAAGCAUGUGAAAGUGCACUUAAGAUAGAGUUUUUAUUAAUUACUUACUUAUUACCUAGAUUUUAAAUAGACAAUCCAAAGUCUCCCCUUCGUGUUGCCAUCAUCUUGUGGAAUUCUCGGGUGCCAA | 1.15 |
| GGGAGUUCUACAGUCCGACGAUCGUCAGUAAUGAACUGGCUGCAAGGGGACAGCACCUCUCAGCCUGCACAGCAGCUUGUCAGAGUGAGAACUGUCCUGGGGCCAGAGACUAACAUGCCCAGGUGGUGUCGGCUGGAAUUCUCGGGUGCCAA | 0.749 |
| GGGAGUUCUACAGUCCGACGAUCACUACAAGCUGGAGUGUAGGAAUUGACUAUAGCAAUUUGAUACAUUUUUAAAGCUGCUUCCUGUUUGUUGAGGGUCUGUAUUCAUAGACCUUGACUGGAAUAUGUAAGACUGGAAUUCUCGGGUGCCAA | 0.354 |
| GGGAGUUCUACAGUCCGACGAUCUGCAUGAAAAUUCUGUUAGCUGUGUGGUGAACUGUCUACCCUCGCGGAUCUUGUAUUUCGUGCCGGGAUGGGGUUGAGAUAGAGAGUAUAGUGAAGAAGAGUCAAGCGUCUGGAAUUCUCGGGUGCCAA | 6.93 |
| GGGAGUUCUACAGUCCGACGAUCACAAGGUGAUCGAAGGCCUGGACACGGGCCUGCAGGGCAUGUGUGUGGGAGAGAGGCGGCAGCUCAUCGUGCCCCCGCACCUGGCCCACGGGGAGAGUGGAGGCCGGGGAUGGAAUUCUCGGGUGCCAA | 0.492 |
| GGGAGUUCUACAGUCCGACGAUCGCAGUGAUUCCUCUCAUAGCUCUGGGAUGGGGCUUGGUUAGGGUGUCGUGAUGGAAAUAAACCUGAACCUGUUGCCCAGUACCAGGGCCUCUGCUGUUUGGUCUUCACUCUGGAAUUCUCGGGUGCCAA | 0.282 |
| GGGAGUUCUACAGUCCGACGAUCAGAAGCCUCUGCACCUACUGUGCAGAACUCUCCACUUCCCCAACCCUCCCCAGGUGGGCAGGGCGGAGGGAGCCUCAGCCUCCUUAGACUGACCCCUCAGGCCCCUAGGCUGGAAUUCUCGGGUGCCAA | 0.266 |
